{"data": "Measured values of several laboratories", "target": "NT-3 growth factor receptor (NTRK3, Homo sapiens, UniProt Q16288)", "note": "Compare with care: the assays were run in different laboratories."}
{"SMILES": "COc1ccc(S(=O)(=O)N2CCc3ccccc3C2)cc1N1CCN(C(=O)c2ccc(F)cc2C(F)(F)F)CC1", "effect on": "enzyme activity", "action": "inhibitor", "concentration": "1 µM", "measurement": "inhibition", "value": "-15.8%"}
{"SMILES": "COc1c(Cl)cccc1Nc1c(-c2ccncc2C#C[C@@]2(C)CCCN2C(=O)/C=C/CN(C)C)[nH]c2c1C(=O)NCC2", "effect on": "cell-free assay", "technique": "competition with immobilised ligand", "concentration": "3 µM", "measurement": "remaining binding", "value": "69%"}
{"SMILES": "COc1cc(Nc2nccc(-c3cnn4nc(OC)ccc34)n2)cc(C(F)(F)F)c1", "effect on": "binding", "technique": "competition with immobilised ligand", "concentration": "1 µM", "measurement": "remaining binding", "value": "73%"}
{"SMILES": "Cc1cc(C(=O)Nc2ccc3[nH]ncc3c2)ccc1NC(=O)Nc1cc(C(F)(F)F)ccc1F", "effect on": "enzyme activity", "action": "inhibitor", "technique": "FRET", "concentration": "1 µM", "measurement": "inhibition", "value": "17.9%"}
{"SMILES": "Nc1ncc(-c2cc(-c3cnn(CC(F)(F)F)c3)ncc2F)nc1C(=O)NC1CNCC(F)C1 (stereo not drawn)", "effect on": "enzyme activity", "concentration": "1 µM", "relative to": "DMSO control", "measurement": "remaining activity", "value": "47.4%"}
{"SMILES": "CCN1CCN(Cc2ccc(C(=O)Nc3ccc(C)c(NCc4cnc5[nH]ccc5c4OC)c3)cc2C(F)(F)F)CC1", "effect on": "binding", "technique": "competition with immobilised ligand", "concentration": "1 µM", "measurement": "remaining binding", "value": "21%"}
{"SMILES": "O=C(CN1CCN(C(=O)c2ccc(F)cc2)CC1)Nc1cccc(C(=O)Nc2ccc3[nH]ncc3c2)c1", "effect on": "enzyme activity", "action": "inhibitor", "technique": "FRET", "concentration": "1 µM", "measurement": "inhibition", "value": "10.7%"}
{"SMILES": "CNC(=O)C[C@H](Cc1ccc(C#N)cc1)NC(=O)c1cc(-c2ccc(CN[C@H](C)c3ccc(C)cc3)o2)ccc1Cl", "effect on": "enzyme activity", "action": "inhibitor", "concentration": "1 µM", "measurement": "activity vs control", "value": "91%"}
{"SMILES": "Cc1cnc2nc1Nc1cccc(c1)COC/C=C/COCc1cc(ccc1OCCN1CCOCC1)N2", "effect on": "binding", "technique": "competition with immobilised ligand", "concentration": "0.1 µM", "measurement": "remaining binding", "value": "75%"}
{"SMILES": "O=C(Nc1cc(C(=O)Nc2ccc3[nH]ncc3c2)ccc1F)Nc1cc(C(F)(F)F)ccc1F", "effect on": "enzyme activity", "action": "inhibitor", "technique": "FRET", "concentration": "1 µM", "measurement": "inhibition", "value": "24.8%"}
{"SMILES": "O=C(Cc1ccc(OCc2ccccc2)cc1)NC1(C(=O)O)CCN(C(=O)c2ccc(-c3cccc(Cl)c3)cc2)CC1", "effect on": "enzyme activity", "action": "inhibitor", "concentration": "10 µM", "measurement": "activity vs control", "value": "81%"}
{"SMILES": "CCN1CCN(Cc2ccc(NC(=O)c3ccc(C)c(NC(=O)c4cncc(-c5cnn(C)c5)c4)c3)cc2C(F)(F)F)CC1", "effect on": "binding", "technique": "competition with immobilised ligand", "concentration": "1 µM", "measurement": "remaining binding", "value": "6.6%"}
{"SMILES": "Cc1cccc(O[C@H]2CCC[C@@H](C(C)CNCc3ccncc3)C2)c1 (relative stereo)", "effect on": "cell-free assay", "concentration": "1 µM", "measurement": "inhibition", "value": "0%"}
{"SMILES": "O=C(Nc1ccc(C(=O)Nc2ccc3[nH]ncc3c2)c(F)c1)Nc1cc(C(F)(F)F)ccc1F", "effect on": "enzyme activity", "action": "inhibitor", "technique": "FRET", "concentration": "1 µM", "measurement": "inhibition", "value": "13.7%"}
{"SMILES": "Nc1ncc2c(n1)-c1c([nH]c3ccc(C4=CCOCC4)cc13)CCC2", "effect on": "binding", "technique": "competition with immobilised ligand", "concentration": "1 µM", "measurement": "remaining binding", "value": "97%"}
{"SMILES": "C=CC(=O)Nc1cccc(-c2cnc3[nH]cc(C(=O)NC(C)(C)C)c3n2)c1", "effect on": "enzyme activity", "action": "inhibitor", "concentration": "0.1 µM", "measurement": "inhibition", "value": "-9%"}
{"SMILES": "O=C(Nc1ccc(C(=O)Nc2ccc3[nH]ncc3c2)cc1F)Nc1cc(C(F)(F)F)ccc1F", "effect on": "enzyme activity", "action": "inhibitor", "technique": "FRET", "concentration": "1 µM", "measurement": "inhibition", "value": "29.2%"}
{"SMILES": "CNC(=O)C1CCN(c2cc(C)c(F)cc2NC(=O)c2ccc(-c3cc(O)ccc3C)c(C)c2)CC1", "effect on": "binding", "technique": "competition with immobilised ligand", "concentration": "1 µM", "measurement": "remaining binding", "value": "79%"}
{"SMILES": "CN1CCN(Cc2ccc(-c3ccc(CO[C@H]4CCC[C@@H]4NC(=O)c4cc(-c5cnn(C)c5)cnc4N)cc3)cc2)CC1", "effect on": "enzyme activity", "action": "inhibitor", "concentration": "0.1 µM", "measurement": "inhibition", "value": "1%"}
{"SMILES": "O=C(Nc1ccc(C(=O)Nc2ccc3[nH]ncc3c2)c(Cl)c1)Nc1cc(C(F)(F)F)ccc1F", "effect on": "enzyme activity", "action": "inhibitor", "technique": "FRET", "concentration": "1 µM", "measurement": "inhibition", "value": "25.8%"}
{"SMILES": "NC(=O)C[C@H]1CCc2sc3ncnc(O[C@H]4CC[C@H](N5CCOCC5)CC4)c3c21", "effect on": "enzyme activity", "action": "inhibitor", "concentration": "10 µM", "measurement": "inhibition", "value": "39%"}
